Assay results pooled from the literature.
Parts stem from different laboratories: compare values within a part only. Changes are numbered by the printed parent chain.

Study 1 — method: DHFR PCA, deep sequencing; medium: yeast; with: (+)-ABA 200 µM; baseline: wild-type fitted maximum; direction: higher = stronger binding
Target: ABI1, truncated, D143A, DHFR fusion (Arabidopsis thaliana)
Notes: methotrexate growth selection, single substitutions
Starting sequence: PYL1, truncated, DHFR fusion (Arabidopsis thaliana); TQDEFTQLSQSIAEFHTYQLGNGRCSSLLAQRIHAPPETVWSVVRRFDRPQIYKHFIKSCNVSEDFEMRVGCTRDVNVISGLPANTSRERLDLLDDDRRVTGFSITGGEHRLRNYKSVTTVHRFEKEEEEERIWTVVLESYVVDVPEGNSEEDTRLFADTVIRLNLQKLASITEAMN
Change	relative binding score
S150R	72.9%
S59V	87.1%
Y141A	1.37%
I79T	97.8%
S80M	20.6%
Y18I	84.4%
E129C	106%
S26E	68.4%
H110L	11.3%
M68T	95.4%
D96K	36.4%
T86I	85.3%
P37H	68.9%
S42R	97.3%
C25K	35.9%
R132Y	95.4%
R69W	66.5%
H122C	56.1%
F5V	96.4%
I133E	117%
Q10T	98.6%
S171W	88.9%
F47R	-5.01%

Study 2 — method: protein binding microarray; form: double-stranded DNA, one strand shown; medium: in vitro; concentration: not given; baseline: not given; direction: higher = stronger binding
Target: Histone acetyltransferase KAT6A, winged helix 2, GST fusion (KAT6A, Homo sapiens, UniProt Q92794, residues 85-181)
Notes: 8-mer, flanks averaged, mean of 2 arrays, mostly near background
Construct (chain): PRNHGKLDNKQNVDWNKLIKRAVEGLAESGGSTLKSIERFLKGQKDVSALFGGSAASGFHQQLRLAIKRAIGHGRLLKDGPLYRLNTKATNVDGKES
Strand	E-score
AAGCGGGC	-0.0541
CCGTGACC	0.029
ATTATCCC	-0.0292
AGGAGGGG	0.207
ATGATTCA	-0.087
GTAAGTAC	-0.171
GAGCCTTA	-0.171
GCGCAGAC	0.126
TCGAGAGA	0.085
GCACGTAC	-0.112
GGATCTGA	0.0262
GCAAGCTA	0.115
TACCAGTA	0.0224
TCGGCGAA	0.133
GAACAATC	0.0183
AACAATAT	0.186
CTCCACTA	-0.00711
GGACTATA	-0.13
CATGCCGG	0.262
ATATACAC	-0.196
GGTGAGAA	0.0181
AAATGGGT	-0.134
CTGAGACC	-0.00991
ACCGAGTG	-0.145
ATGCGACC	0.242

Study 3 — target: CCNB2, cyclin fold, Cln2 fusion (human); method: yeast growth competition, sequencing; medium: yeast; notes: weak parent motif; baseline: not given; direction: higher = stronger binding
Starting sequence: RBL1 docking peptide (human); GSAKRRLFGEDPP; partner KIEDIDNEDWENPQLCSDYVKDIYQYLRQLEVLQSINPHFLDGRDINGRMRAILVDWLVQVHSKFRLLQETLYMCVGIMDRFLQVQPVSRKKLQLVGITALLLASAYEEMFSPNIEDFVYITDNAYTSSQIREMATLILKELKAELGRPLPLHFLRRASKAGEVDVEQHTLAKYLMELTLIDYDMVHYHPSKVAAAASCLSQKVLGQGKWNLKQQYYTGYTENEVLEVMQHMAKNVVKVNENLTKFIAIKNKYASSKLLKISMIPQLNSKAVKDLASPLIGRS
Change	normalised enrichment score
GSAGRRLFGEDPP [K4G]	0.0446
GSAKRILFGEDPP [R6I]	-0.46
GSAKRRVFGEDPP [L7V]	0.455
GSAKRRGFGEDPP [L7G]	0.162
ISAKRRLFGEDPP [G1I]	1.26
RSAKRRLFGEDPP [G1R]	0.363
GSAKRRLFAEDPP [G9A]	0.5
GIAKRRLFGEDPP [S2I]	0.31
GSAKRRLNGEDPP [F8N]	-0.131
GSAKRRLIGEDPP [F8I]	-0.0328
GSAKRRLFGEDPH [P13H]	0.755
GSAKRRLFGYDPP [E10Y]	-0.154
GSAKHRLFGEDPP [R5H]	0.319
GSAKSRLFGEDPP [R5S]	-0.0414
GSAKRRDFGEDPP [L7D]	-0.319
GSAKRWLFGEDPP [R6W]	0.0797
GSVKRRLFGEDPP [A3V]	0.924
KSAKRRLFGEDPP [G1K]	0.306
GSAKRRLFGEDWP [P12W]	0.425
GSAKRRLEGEDPP [F8E]	-0.465
GSAKRRLFGEDPA [P13A]	0.231
GSAKRRLFGEDSP [P12S]	0.312
GPAKRRLFGEDPP [S2P]	0.138
GSAKPRLFGEDPP [R5P]	0.0951
GSAKRRLFLEDPP [G9L]	-0.452

Study 4 — method: RNA Bind-n-Seq; form: RNA; medium: in vitro; concentration: 200 nM; notes: whole 134-nt RNA, ends assumed; with: 150 mM LiCl; baseline: input library; direction: higher = stronger binding; each molecule: 7-deaza-guanosine replaces G
Target: Fragile X messenger ribonucleoprotein 1, C-terminal low-complexity region (Fmr1, Mus musculus, UniProt P35922)
Constant ends, left off below: GGGAGUUCUACAGUCCGACGAUC … UGGAAUUCUCGGGUGUCAAGG
Strand	log2 enrichment
CACAGACAACACGCACCCACACAGACACAGAGGGAAGGGGUUGGGAUGGGGACAGAGUGCACAGCAGGGCGGGGUAGGACCCCAGCCCCU	0.117
UCAAGUCCUGUGCUACACAUCGUAUGUACCGAAUCGGUUUGGGUUUGGUUUGGGGAAAGUAUUAUGUUACGCCGUUCGGAUCUGCACUUC	-1.24
CAAGUCCUGUGCUACACAUCGUAUGUACCGAAUCGGGGCCGGGCCGGGGCCGGGGAAAGUAUUAUGUUACGCCGUUCGGAUCUGCACUUC	0.0516
UGGCCCUGGUGGCAUGCGGGGAGGAAGAGGUGGCCUCAUGGAUCGUGGUGGUCCCGGUGGAAUGUUCAGACGUGGCCGUGGUGGAGACAG	-0.557
CCUGUGCUACACAUCGUAUGUACCGAAUCGGGUUUUUUGGGGUUUUUUGGGGUUUUUUGGAAAGUAUUAUGUUACGCCGUUCGGAUCUGC	0.152
CUCAAGUCCUGUGCUACACAUCGUAUGUACCGAAUCGGGAAAGGGAGGGUGGGAAAGUAUUAUGUUACGCCGUUCGGAUCUGCACUUCCA	-0.998
UGGCCCUGGUGGCAUGCGGGGAGGAAGAGGUGGCCUCAUGGAUCGUGGUGGUCCCGAUGGAAUGUUCAGAGGUGGCCGUGGUGGAGACAG	-0.742
UCCUGUGCUACACAUCGUAUGUACCGAAUCGGGGAAAAAGGGGAGGGGAAAAAAAGGGGAAAGUAUUAUGUUACGCCGUUCGGAUCUGCA	0.187
CUGUGCUACACAUCGUAUGUACCGAAUCGGGGAAAGGGGUUUUUUUGGGGAAAAAAAGGGGAAAGUAUUAUGUUACGCCGUUCGGAUCUG	-0.325
CACAGACAACACGCACCCACACAGACACAGAGGGAAGGGGUUGAGAUGGGGACAGGGUGCACAGCAGGGCGGGGUAGGACCCCAGCCCCU	-0.505
UAACUUUAGAGGAGGAUCUGAUGGAUAUGGCAGUGGACGUGGAUUUGGGGAUGGCUAUAAUCGGUAUGGAGGAGGACCUGGAGGUGGCAA	0.835

Study 5 — method: RNA Bind-n-Seq; form: RNA; medium: in vitro; concentration: 365 nM; baseline: no-protein control; direction: higher = stronger binding
Target: RNA binding protein fox-1 homolog 2, RRM domain, GST-SBP tag (RBFOX2, Homo sapiens, UniProt O43251-10, residues 100-194)
Notes: natural RNA segment, single round, ends assumed
Constant ends, left off below: GGGAGUUCUACAGUCCGACGAUC … UGGAAUUCUCGGGUGCCAA
Residues (chain): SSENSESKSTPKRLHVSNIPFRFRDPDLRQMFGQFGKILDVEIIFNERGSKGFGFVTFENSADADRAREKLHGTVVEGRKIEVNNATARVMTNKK
Strand	RBNS enrichment (R)
UGCCCCCAGCGUGGGGCUAACGGGCGCCUUGUCUGUGUAUUUCUAUUUUGCAGCAGUACCAUCCCACUGAUAUCACGGGCCCGCUCAACCUCUCAGAUCCCUCGGUCAGC	0.286
UUUUGCUCACUUUUCAGUUGGGUUUUUUUUCUUAUUAAAUAGUAAGAGUUCUUAAUAUAUUCUGGAUACAAGUCCUUUUAAGACAUGAUUUGCAAAUAUUUUCUCCCAGU	0.392
CACCAUGGAUACUCGCCCGUGGGCAGGGCUGUGGUCAGCCAAGAAUAGAGGUCAUAUAGUUGGGCCAUGGGGCAAUUGUUGGCAGCCAUGACUGACGGCCCCUUGUGCAA	0.561
CCCAAAACUAGGGGUCCGUCAGUCUUGGAGACUAUGGGAGCCUCUGCACCCAGGGAAAAUGUUACCCUUUACAGGGGGGAAGGGUAAACCAGUAGGGAAUACAGUACAAU	2.08
AUUUCCUGCACUGGGUUGUGCGUGUGUGUGUGUGUGCGCGUGUAUGUGCGUGUGUGUGCGCGUGUGUGUUAUUGUUUAAAUUGUAUUCACAGUGUUGUUUGCCUUGCUCA	1.84
AAUAGCUGAAUGUAAAUAGCAGGGAGGAAGAAGCAAGCAAAGUGAGAGCUUUUCUUCAUCCAGAAUUGCCCUCUGGGCUCCUUUGGUAACAGAUGGAGCUCCUUCCUAGC	0.728
UGUCAUGCUGAUGUGAACACAUCUUACUCUGAAUAAAAAGGUGUUGCCACGUUUGUAGCACGAAGGAUCUCUAAUGGGUCUGAGUCUUCACUGGAGCGUGCCAUCUGGGC	0.344
GCAUAUGCCAGCCACUGCGCUUGGUUCCCAUUUUCUUUGCCAAGGUGUAUUAGCGGACGGCCCUCUGGCCACCUACCCGAGAGAUCGUAGGGUCACAUACAUCCAACUUC	0.602
AAAUUUGUUUGACUAUUUUAAAAUUAUAUUAGACCUUAAGCUGUUUUAGCAAGCAUUAAAGCAAAUGUAUGGCUGCCUUUUGAAAUAUUUGAUGUGUUGCCUGGCAGGAU	2.41
UCAGGUAUUAUUUACUUUUAUUUUUUUGACCUGAAUCGGGAGCCACACUUGGCCCUCUUCCUCUCCAAAGCGCCAGAACCUCCUUCUCUUUGGAGAAUGGGGAGGCCUCU	0.361
ACACUGUGCACAUCUGUGUCUUGUUUGGAAUAUUGUCCAUUGUCCAAUCCUAUGUUUUUGUUCAAAGCCAGCGUCCUCCUCUGUGACCAAUGUCUUGAUGCAUGCACUGU	18.8
UGUGAAUUCGCAUUGCUGUUUUGUGUACUAAAACGUAACCAUUGGCAUUGUGAACAACAAGCUCUUAGUGGUGUAUUUACCUGUUAAAACUUAAAAGCAGUGUUAGUGAG	0.23

Study 6 — method: competition protein-binding microarray; form: double-stranded DNA, one strand shown; medium: in vitro; concentration: 2 µM; with: Pho4 competitor, 0.05 µM; direction: higher = stronger binding; constant ends, left off below: … GTCTTGATTCGCTTGACGCTGCTG
Target: Centromere-binding protein 1, full length, His-tagged (CBF1, Saccharomyces cerevisiae, UniProt P17106, residues 1-351)
UniProt P17106, sequence (whole entry, looked up): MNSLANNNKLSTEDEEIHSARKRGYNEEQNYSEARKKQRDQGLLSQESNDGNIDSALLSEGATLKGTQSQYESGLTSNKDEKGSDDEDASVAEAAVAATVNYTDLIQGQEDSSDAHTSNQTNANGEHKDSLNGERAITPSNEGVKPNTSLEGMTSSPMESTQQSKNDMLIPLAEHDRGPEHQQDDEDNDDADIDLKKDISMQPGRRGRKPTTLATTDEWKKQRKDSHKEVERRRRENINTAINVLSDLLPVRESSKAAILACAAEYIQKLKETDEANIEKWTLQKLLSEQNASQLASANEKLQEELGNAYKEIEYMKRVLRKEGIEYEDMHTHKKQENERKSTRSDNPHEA
Notes: whole 60-bp probe, lowest competitor level
Strand	fluorescence intensity
ATGTACCGTTCAAGCCACCTGACATTATACCACCAG	238 a.u.
CGGATGCGCTGGCTGTACGTGACGGTGAAGTAGCTA	67.2 a.u.
CTAACGAAGGTTTGAAGGGTGGGTGACAAGCCAAGT	70.9 a.u.
TTAATATGGTGGAGTCAGCTGAGAAGTTTTTTCAAT	149 a.u.
GTCCTTTGCCTCTACCTCGTGCTTTCTCTTGCCATG	180 a.u.
CAAGAAATCGCACTTTACGTGCAAACAAATCAAATG	96.1 a.u.
CATACCCAACCTTGGGGGGTGGGTGAAGATATTTGT	89.3 a.u.
TAATCCTCAACACTACCCGTGGTGAATGTCCTAAAG	68.5 a.u.
CTTTCCCGATCTTGAATCGTGGGTGTAGCACATTTG	72.7 a.u.
CACACCGTACTTGAGCACATGTCTGGATTGCTAGCT	195 a.u.
CTTCTGTAAATTTGACAAGTGGGTGGACGCGCCCCG	73.9 a.u.
CGGGGTTAAGTTTGCCGTGTGGGTGGCTTGCAGCAG	54.3 a.u.
CTAATTGTGCTTTTGCACGTGCCAGGTTTATTAAAC	2690 a.u.
CAGTCTCTGCAAAAGCACGTGCGATGTCTCTGGTGT	1440 a.u.
TAATCGCAGTAGTTGAGCGTGCGATTTGCGCATTTG	70.4 a.u.
CATACCCAACCTTGTCACGATACTTAAGATATTTGT	302 a.u.
